{"data": "Experimental data from different studies", "note": "A part holds a random share of what one study measured. Numbers after ± are the reported error."}
{"data": "Study 1", "organism": "SARS-CoV-2 Wuhan spike VSV pseudovirus", "effect on": "pseudovirus entry", "tested at": "concentration not given"}
{"Compound": "COc1ccc(-c2ccnc(N)n2)cc1", "inhibition [%]": 41}
{"Compound": "Cc1oc(-c2cccs2)nc1CN(C)C1CCCc2ccccc21 (stereo not drawn)", "inhibition [%]": 38}
{"Compound": "Cc1ccc(NC(=O)c2cc3cc(N(C)S(C)(=O)=O)ccc3s2)c(C)c1", "inhibition [%]": 42}
{"Compound": "O=C(CCN1CCC(c2nnc3ccccn23)CC1)NC1CCCCCC1", "inhibition [%]": 38}
{"Compound": "COc1ccc2c(c1)CC(C(=O)N1CCC(CCC(=O)Nc3ccccc3)CC1)CO2 (stereo not drawn)", "inhibition [%]": 41}
{"Compound": "CCOC(=O)c1nc(NCCCN2CCN(c3cc(C)ccc3C)CC2)c2ccccc2n1", "inhibition [%]": 45}
{"Compound": "COc1ccc(CCNc2ncnc3c2oc2ccccc23)cc1OC", "inhibition [%]": 37}
{"Compound": "CC1CCN(CCCNC(=O)c2ccc(-c3cc(N4CCCC4)ncn3)cc2)CC1", "inhibition [%]": 41}
{"Compound": "COc1ccc(C2(C(=O)N3CCC(Cc4nc(-c5ccc(F)cc5)no4)CC3)CC2)cc1", "inhibition [%]": 46}
{"Compound": "O=C(O)c1cc2ccc(O)cc2oc1=O", "inhibition [%]": 45}
{"Compound": "O=C(C1CCCCC1)N1C[C@@H](CO)[C@H](c2ccncc2)C1", "inhibition [%]": 41}
{"Compound": "COc1ccc(C(=O)N2c3cc(CNC(=O)c4ccnn4C)ccc3CC2C)cc1 (stereo not drawn)", "inhibition [%]": 39}
{"Compound": "CCOc1cccc(N2C(=O)CC(N3CCC(C(N)=O)CC3)C2=O)c1 (stereo not drawn)", "inhibition [%]": 37}
{"Compound": "CCc1cc2c(N3CCCC(C(=O)N4CCN(c5ccccn5)CC4)C3)ncnc2s1 (stereo not drawn)", "inhibition [%]": 43}
{"Compound": "Clc1ccc2c(Sc3nnnn3C3CCCC3)ccnc2c1", "inhibition [%]": 44}
{"Compound": "CCc1ccc(S(=O)(=O)N2Cc3nn4c(C)c(C)c(C)nc4c3C2)cc1", "inhibition [%]": 44}
{"Compound": "CCN(CC)S(=O)(=O)N1CCC(C(=O)Nc2cccc(CCc3nc4cc(C)ccc4[nH]3)c2)CC1", "inhibition [%]": 47}
{"Compound": "CCOC(=O)c1ccc2c(c1)[C@@H]1C=CC[C@@H]1[C@H](c1ccccc1OCc1ccccc1)N2", "inhibition [%]": 43}
{"data": "Other studies, line by line", "rep papain-like protease": "Replicase polyprotein 1ab, papain-like protease (rep, Severe acute respiratory syndrome coronavirus 2, UniProt P0DTD1)", "rep nsp14": "Replicase polyprotein 1ab, nsp14 (rep, Severe acute respiratory syndrome coronavirus 2, UniProt P0DTD1)", "Matrix protein 2 S31N": "Matrix protein 2 (Influenza A virus, UniProt P0DOF5, S31N)", "rep nsp12 RdRp": "Replicase polyprotein 1ab, nsp12 RdRp (rep, Severe acute respiratory syndrome coronavirus 2, UniProt P0DTD1)"}
{"Substance": "N=C(N)c1ccc2cc(OC(=O)c3ccc(N=C(N)N)cc3)ccc2c1", "target or system": "rep papain-like protease", "setting": "concentration not given, C111S mutant", "how to read": "reference: positive control", "measurement": "activity", "result": "19.8%"}
{"Substance": "C[S+](CC[C@H](N)C(=O)[O-])C[C@H]1O[C@@H](n2cnc3c(N)ncnc32)[C@H](O)[C@@H]1O (stereo partly drawn)", "target or system": "rep nsp14", "assay": "thermal shift", "setting": "250 µM", "measurement": "ΔTm", "result": "1.1 °C"}
{"Substance": "CCN(CC)C12C3CCC4C3C3C(CCC31)C42.Cl", "target or system": "Matrix protein 2 S31N", "setting": "concentration not given, pH 5.5, cell-based", "measurement": "inhibition", "result": "0%"}
{"Substance": "CCC(CC)[C@H](NC(C)=O)[C@@H]1[C@H](O)[C@@H](C(=O)O)C[C@H]1N=C(N)N", "target or system": "neuraminidase (Influenza B virus, UniProt C0LT34, I221V)", "measurement": "IC50", "result": "5.5 ± 1.2 nM"}
{"Substance": "NCC12CC3CC(CC1C3)C2", "target or system": "Matrix protein 2 S31N", "setting": "concentration not given, pH 5.5, cell-based", "measurement": "inhibition", "result": "0%"}
{"Substance": "CCC(CC)COC(=O)[C@H](C)N[P@](=O)(OC[C@H]1O[C@@](C#N)(c2ccc3c(N)ncnn23)[C@H](O)[C@@H]1O)Oc1ccccc1", "target or system": "SARS-CoV-2", "assay": "viral replication", "system": "Calu-3, Gamma", "measurement": "EC90", "result": "300 ± 20 nM"}
{"Substance": "CC(C)Nc1nc2cc(Cl)c(Cl)cc2n1[C@H]1O[C@@H](CO)[C@H](O)[C@@H]1O", "target or system": "SARS-CoV-2", "assay": "cytopathic effect", "system": "Vero C1008, Omicron BA.1", "setting": "48 h", "measurement": "IC100", "result": "7.99 ± 0.28 µM"}
{"Substance": "CCCCCCC#Cc1cncc(-c2nnc(SCc3cc([N+](=O)[O-])cc([N+](=O)[O-])c3)n2C)c1", "target or system": "Mycobacterium tuberculosis", "system": "Erdman cydA mutant", "measurement": "IC50", "result": "310 ± 17 nM"}
{"Substance": "[H]/N=C(/N)N[C@H]1[C@H](O)[C@@H](O)[C@H](O[C@@H]2O[C@@H](C)[C@](O)(C=O)[C@H]2O[C@@H]2O[C@@H](CO)[C@H](O)[C@@H](O)[C@@H]2NC)[C@@H](N/C(N)=N\\[H])[C@@H]1O", "target or system": "Mycobacterium tuberculosis", "assay": "Alamar blue", "system": "22/22, SIRE and linezolid resistant", "setting": "21 days, 37 °C", "measurement": "MIC", "result": "32 µg/mL"}
{"Substance": "SLVAVTAAHSTIEEQAKTFLDKFN", "target or system": "SARS-CoV-2 spike RBD", "assay": "peptide spot array", "system": "peptide", "setting": "concentration not given", "how to read": "reference: wild-type ACE2 peptide", "measurement": "relative binding", "result": 3.1}
{"Substance": "CC1(C)O[C@H]2CC(=O)OC[C@]23[C@H]2CC[C@@]4(C)[C@H](c5ccoc5)OC(=O)[C@H]5O[C@]54[C@]2(C)C(=O)C[C@@H]13", "target or system": "rep nsp12 RdRp", "assay": "binding, biolayer interferometry", "setting": "concentration not given", "measurement": "BLI response", "result": "0 nm"}
{"Substance": "O=C(NC1CCN(c2ncnc3[nH]cnc23)CC1)c1cccc(S(=O)(=O)N2CCC2)c1", "target or system": "rep nsp14", "assay": "enzyme activity", "system": "SARS-CoV-2", "measurement": "Hill slope", "result": 12.4}
{"Substance": "COc1nc(N)nc2c1ncn2[C@@H]1O[C@H](CO)[C@@H](O)[C@@H]1O", "target or system": "SARS-CoV-2", "assay": "viral replication", "system": "Vero C1008, Omicron BA.1", "setting": "48 h, reduction of infectious virus", "measurement": "EC90", "result": "6420 ± 190 nM"}
{"Substance": "CCc1cc(=O)c2c(OCC(O)CN3CCOCC3)c3ccoc3c(OC)c2o1 (stereo not drawn)", "target or system": "Mycobacterium tuberculosis", "assay": "Alamar blue", "system": "22/22, SIRE and linezolid resistant", "setting": "21 days, 37 °C", "measurement": "MIC", "result": "128 µg/mL"}
{"Substance": "SLVAVTAAQSTIEEQAKTFLDKHN", "target or system": "SARS-CoV-2 spike RBD", "assay": "peptide spot array", "system": "peptide", "setting": "concentration not given", "how to read": "reference: wild-type ACE2 peptide", "measurement": "relative binding", "result": 3.78}
{"Substance": "CC(C)C[C@H](NC(=O)CNC(=O)c1cc(Cl)ccc1Cl)B1OC(=O)C(CC(=O)O)(CC(=O)O)O1", "target or system": "rep papain-like protease", "setting": "concentration not given, C111S mutant", "how to read": "reference: positive control", "measurement": "activity", "result": "27%"}
{"Substance": "Fc1cccc(-n2cnc3c(NCc4nc5c(F)c(F)ccc5[nH]4)nc(N4CCOCC4)nc32)c1", "target or system": "rep nsp12 RdRp", "assay": "binding, biolayer interferometry", "setting": "concentration not given", "measurement": "BLI response", "result": "0 nm"}
{"Substance": "N#C[C@@]1(n2ccc(N)nc2=O)O[C@H](CO)[C@@H](O)[C@H]1O", "target or system": "SARS-CoV-2", "assay": "viral replication", "system": "Vero, Alpha", "measurement": "EC90", "result": "4800 ± 30 nM"}
{"note": "A few entries again (study 1):"}
{"Compound": "CCOc1cccc(N2C(=O)CC(N3CCC(C(N)=O)CC3)C2=O)c1 (stereo not drawn)", "inhibition [%]": 37}
{"Compound": "O=C(C1CCCCC1)N1C[C@@H](CO)[C@H](c2ccncc2)C1", "inhibition [%]": 41}
